Published values of several laboratories.
A part holds a random share of what one study measured. “And” joins repeats or separate records; there may be more than shown.
UniProt Q6DT37, sequence (whole entry, looked up): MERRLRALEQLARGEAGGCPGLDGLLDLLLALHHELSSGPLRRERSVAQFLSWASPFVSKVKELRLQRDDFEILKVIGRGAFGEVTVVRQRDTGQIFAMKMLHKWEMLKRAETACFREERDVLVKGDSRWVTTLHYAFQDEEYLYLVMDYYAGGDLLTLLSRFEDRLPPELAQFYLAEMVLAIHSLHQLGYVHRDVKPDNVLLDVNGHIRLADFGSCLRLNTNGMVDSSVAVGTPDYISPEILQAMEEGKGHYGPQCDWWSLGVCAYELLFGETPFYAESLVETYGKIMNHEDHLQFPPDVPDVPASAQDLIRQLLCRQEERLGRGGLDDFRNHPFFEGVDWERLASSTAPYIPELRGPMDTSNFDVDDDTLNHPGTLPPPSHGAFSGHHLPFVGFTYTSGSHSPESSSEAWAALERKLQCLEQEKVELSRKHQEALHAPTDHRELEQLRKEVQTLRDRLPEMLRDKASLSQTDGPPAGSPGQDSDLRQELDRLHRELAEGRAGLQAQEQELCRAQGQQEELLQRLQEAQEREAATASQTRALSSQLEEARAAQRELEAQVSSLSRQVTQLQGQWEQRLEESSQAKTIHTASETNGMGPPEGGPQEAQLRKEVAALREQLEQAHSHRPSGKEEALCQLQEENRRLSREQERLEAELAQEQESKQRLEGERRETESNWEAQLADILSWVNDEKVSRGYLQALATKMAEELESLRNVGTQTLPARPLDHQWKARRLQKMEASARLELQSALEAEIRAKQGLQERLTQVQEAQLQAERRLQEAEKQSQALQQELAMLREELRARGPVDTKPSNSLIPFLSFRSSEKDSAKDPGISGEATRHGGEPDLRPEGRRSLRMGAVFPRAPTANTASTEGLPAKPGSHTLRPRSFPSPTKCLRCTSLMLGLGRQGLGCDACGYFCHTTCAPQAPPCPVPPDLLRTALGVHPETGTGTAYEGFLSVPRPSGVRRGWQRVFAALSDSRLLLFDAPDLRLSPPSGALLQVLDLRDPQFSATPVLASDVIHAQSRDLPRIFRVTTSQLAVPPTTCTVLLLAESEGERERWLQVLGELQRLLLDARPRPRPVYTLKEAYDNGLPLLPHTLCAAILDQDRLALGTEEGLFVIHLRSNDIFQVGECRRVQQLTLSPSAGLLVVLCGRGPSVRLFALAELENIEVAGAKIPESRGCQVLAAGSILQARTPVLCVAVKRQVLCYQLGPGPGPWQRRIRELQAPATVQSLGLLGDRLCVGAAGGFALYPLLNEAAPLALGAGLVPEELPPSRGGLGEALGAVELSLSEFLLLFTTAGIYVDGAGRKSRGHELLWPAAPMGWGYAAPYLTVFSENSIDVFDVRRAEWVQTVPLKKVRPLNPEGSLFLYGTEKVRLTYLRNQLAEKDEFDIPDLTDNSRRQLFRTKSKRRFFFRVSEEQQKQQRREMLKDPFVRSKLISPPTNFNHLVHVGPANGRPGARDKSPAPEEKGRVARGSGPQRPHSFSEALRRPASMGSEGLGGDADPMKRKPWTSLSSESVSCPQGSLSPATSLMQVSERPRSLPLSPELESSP
UniProt Q9P0L2, sequence (whole entry, looked up): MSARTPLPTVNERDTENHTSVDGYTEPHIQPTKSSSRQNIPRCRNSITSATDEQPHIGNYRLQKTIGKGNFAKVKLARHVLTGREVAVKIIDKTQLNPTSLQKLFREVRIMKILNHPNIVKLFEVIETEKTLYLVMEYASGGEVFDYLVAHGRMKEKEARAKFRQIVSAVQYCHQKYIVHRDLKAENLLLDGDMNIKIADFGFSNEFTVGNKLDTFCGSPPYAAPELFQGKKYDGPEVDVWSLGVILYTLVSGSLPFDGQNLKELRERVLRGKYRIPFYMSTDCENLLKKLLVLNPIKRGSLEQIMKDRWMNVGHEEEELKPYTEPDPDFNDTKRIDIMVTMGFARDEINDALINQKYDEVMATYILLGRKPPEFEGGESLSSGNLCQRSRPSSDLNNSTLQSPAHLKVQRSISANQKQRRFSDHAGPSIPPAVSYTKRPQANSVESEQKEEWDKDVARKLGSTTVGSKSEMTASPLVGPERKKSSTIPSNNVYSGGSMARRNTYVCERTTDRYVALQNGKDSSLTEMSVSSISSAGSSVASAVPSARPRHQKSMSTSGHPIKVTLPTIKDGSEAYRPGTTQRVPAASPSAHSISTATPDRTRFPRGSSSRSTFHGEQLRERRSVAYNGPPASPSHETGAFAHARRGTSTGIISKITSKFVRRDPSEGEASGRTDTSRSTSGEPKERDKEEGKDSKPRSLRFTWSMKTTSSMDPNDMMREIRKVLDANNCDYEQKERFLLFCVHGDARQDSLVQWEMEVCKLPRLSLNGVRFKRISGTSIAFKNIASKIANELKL
UniProt P36897, sequence (whole entry, looked up): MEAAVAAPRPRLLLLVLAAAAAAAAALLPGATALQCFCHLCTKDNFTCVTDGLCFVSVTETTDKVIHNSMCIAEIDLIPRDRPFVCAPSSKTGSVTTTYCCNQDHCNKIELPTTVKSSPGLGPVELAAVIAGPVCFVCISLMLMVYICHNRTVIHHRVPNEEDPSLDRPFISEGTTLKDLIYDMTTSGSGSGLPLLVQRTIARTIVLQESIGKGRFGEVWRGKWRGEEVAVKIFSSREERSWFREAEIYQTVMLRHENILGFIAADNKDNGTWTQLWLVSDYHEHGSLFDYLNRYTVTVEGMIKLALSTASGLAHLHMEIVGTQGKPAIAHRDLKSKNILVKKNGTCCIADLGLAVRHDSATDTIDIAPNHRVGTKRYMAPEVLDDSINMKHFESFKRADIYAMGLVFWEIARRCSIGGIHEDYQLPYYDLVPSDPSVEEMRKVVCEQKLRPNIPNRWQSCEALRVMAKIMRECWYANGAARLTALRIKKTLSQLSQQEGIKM
UniProt Q9NYL2, sequence (whole entry, looked up): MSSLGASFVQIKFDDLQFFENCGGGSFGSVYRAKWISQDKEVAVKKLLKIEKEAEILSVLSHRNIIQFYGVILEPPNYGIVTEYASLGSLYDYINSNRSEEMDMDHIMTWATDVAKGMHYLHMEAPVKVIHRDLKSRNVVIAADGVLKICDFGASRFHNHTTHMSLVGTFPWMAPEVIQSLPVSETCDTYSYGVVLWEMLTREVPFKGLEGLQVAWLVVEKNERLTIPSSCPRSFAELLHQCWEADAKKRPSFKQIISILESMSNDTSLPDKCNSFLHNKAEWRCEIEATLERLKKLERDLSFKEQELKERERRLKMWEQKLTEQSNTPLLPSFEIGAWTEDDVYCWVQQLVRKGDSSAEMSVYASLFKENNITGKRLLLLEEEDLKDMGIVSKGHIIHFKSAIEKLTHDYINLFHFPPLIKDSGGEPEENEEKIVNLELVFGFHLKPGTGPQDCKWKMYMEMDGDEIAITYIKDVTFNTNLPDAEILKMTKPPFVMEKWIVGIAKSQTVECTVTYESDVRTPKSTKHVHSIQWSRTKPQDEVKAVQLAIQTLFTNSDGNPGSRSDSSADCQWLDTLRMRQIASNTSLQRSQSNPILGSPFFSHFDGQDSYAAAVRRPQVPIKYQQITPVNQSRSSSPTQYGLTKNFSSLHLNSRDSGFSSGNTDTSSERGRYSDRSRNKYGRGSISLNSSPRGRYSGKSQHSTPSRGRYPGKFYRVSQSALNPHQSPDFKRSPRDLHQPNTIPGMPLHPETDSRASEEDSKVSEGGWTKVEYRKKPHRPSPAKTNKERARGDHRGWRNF

Set 1
SMILES: C=CCc1ccc(O)c(-c2ccc(O)c(CC=C)c2)c1
Read-out: chloride current
ANO1 del476-501/K629A: Anoctamin-1 (ANO1, Homo sapiens, UniProt Q5XXA6, del476-501/K629A)
UniProt Q5XXA6, sequence (whole entry, unmodified, looked up): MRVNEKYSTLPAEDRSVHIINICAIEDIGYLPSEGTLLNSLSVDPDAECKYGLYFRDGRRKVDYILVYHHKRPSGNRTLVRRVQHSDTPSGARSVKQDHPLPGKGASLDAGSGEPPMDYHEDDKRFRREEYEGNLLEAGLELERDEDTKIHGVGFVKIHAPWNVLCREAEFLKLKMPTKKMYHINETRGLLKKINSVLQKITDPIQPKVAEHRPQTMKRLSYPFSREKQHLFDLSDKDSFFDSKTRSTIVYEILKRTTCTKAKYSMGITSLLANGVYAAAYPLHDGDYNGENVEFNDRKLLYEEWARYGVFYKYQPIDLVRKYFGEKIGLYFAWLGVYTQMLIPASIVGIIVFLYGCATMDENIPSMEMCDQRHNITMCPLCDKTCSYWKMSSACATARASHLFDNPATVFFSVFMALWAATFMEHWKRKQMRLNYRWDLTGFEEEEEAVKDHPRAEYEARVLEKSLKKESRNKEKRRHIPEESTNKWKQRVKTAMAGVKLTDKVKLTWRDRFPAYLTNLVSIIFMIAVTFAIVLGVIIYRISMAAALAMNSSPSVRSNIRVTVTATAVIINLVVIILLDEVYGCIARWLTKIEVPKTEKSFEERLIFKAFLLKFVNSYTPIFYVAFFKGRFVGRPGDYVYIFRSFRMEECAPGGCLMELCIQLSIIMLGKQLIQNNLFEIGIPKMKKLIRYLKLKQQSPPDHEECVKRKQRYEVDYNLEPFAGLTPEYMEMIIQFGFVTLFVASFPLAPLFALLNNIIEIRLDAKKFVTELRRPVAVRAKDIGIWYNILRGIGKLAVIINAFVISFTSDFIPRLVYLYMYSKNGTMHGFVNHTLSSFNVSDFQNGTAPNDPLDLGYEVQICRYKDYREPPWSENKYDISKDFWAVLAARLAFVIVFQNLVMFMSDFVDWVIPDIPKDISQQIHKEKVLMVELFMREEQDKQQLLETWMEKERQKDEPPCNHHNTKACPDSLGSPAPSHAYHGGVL
ANO1 del476-501: Anoctamin-1 (ANO1, Homo sapiens, UniProt Q5XXA6, del476-501)
ANO1 del476-501/E649A/R541A: Anoctamin-1 (ANO1, Homo sapiens, UniProt Q5XXA6, del476-501/E649A/R541A)
ANO1 del476-501/F628A: Anoctamin-1 (ANO1, Homo sapiens, UniProt Q5XXA6, del476-501/F628A)
| target | assay | setting | scale | normalized current |
| --- | --- | --- | --- | --- |
| ANO1 del476-501/K629A | inside-out patch clamp | 10 µM, membrane voltage 120 mV |  | 1 |
| Anoctamin-1 (ANO1, Homo sapiens, UniProt Q5XXA6, del476-501/R429A) | inhibitor, whole-cell voltage clamp | concentration not given, R429A mutant |  | 0.336 and 0.42 and 0.371 and 0.416 and 0.349 and 0.346 and 0.443 |
| ANO1 del476-501 | whole-cell voltage clamp | 3 µM, wild type, concentration-response at -80 mV, together with: 4 µM Ca2+ |  | -0.546 |
| ANO1 del476-501 | whole-cell voltage clamp | 30 µM, wild type, concentration-response at -80 mV, together with: 4 µM Ca2+ |  | -0.0502 |
| ANO1 del476-501 | whole-cell voltage clamp | 30 µM, wild type, concentration-response at -60 mV, together with: 4 µM Ca2+ |  | -0.0404 |
| ANO1 del476-501/E649A/R541A | inside-out patch clamp | 10 µM, membrane voltage 100 mV |  | 0.706 |
| Anoctamin-1 (ANO1, Homo sapiens, UniProt Q5XXA6, del476-501/F803A) | inhibitor, whole-cell voltage clamp | 30 µM | reference: untreated | 0.34 |
| ANO1 del476-501/F628A | whole-cell voltage clamp | 100 µM, I-V at 20 mV, together with: 4 µM Ca2+ |  | 0.0447 |
| ANO1 del476-501 | whole-cell voltage clamp | 30 µM, wild type, I-V at 20 mV, together with: 4 µM Ca2+ |  | 0.0138 |
| ANO1 del476-501/K629A | inside-out patch clamp | 10 µM, membrane voltage 40 mV |  | 0.215 |
| ANO1 del476-501 | whole-cell voltage clamp | 10 µM, wild type, I-V at 60 mV, together with: 4 µM Ca2+ |  | 0.173 |
| ANO1 del476-501/F628A | whole-cell voltage clamp | 3 µM, concentration-response at -100 mV, together with: 4 µM Ca2+ |  | -0.767 |
| ANO1 del476-501/F628A | whole-cell voltage clamp | 10 µM, I-V at -20 mV, together with: 4 µM Ca2+ |  | -0.111 |
| ANO1 del476-501/E649A/R541A | inside-out patch clamp | 10 µM, membrane voltage 80 mV |  | 0.525 |
| ANO1 del476-501 | whole-cell voltage clamp | 10 µM, wild type, concentration-response at 20 mV, together with: 4 µM Ca2+ |  | 0.0505 |
| ANO1 del476-501 | whole-cell voltage clamp | 3 µM, wild type, I-V at -60 mV, together with: 4 µM Ca2+ |  | -0.457 |

Set 2
Compound: O=C1CCc2cc(Nc3cc(OC4CCOCC4)c([N+](=O)[O-])cc3Cl)ccc2N1
Concentration: 1 µM
| target | assay | remaining binding [%] |
| --- | --- | --- |
| Tyrosine-protein kinase ABL1, phosphorylated (ABL1, Homo sapiens, UniProt P00519, H396P) | cell-free assay, competition with immobilised ligand | 85 |
| PRKCQ (Homo sapiens, UniProt Q04759) | cell-free assay, competition with immobilised ligand | 92 |
| ZAP70 (Homo sapiens, UniProt P43403) | cell-free assay, competition with immobilised ligand | 91 |
| RIOK1 (Homo sapiens, UniProt Q9BRS2) | cell-free assay, competition with immobilised ligand | 100 |
| DYRK2 (Homo sapiens, UniProt Q92630) | cell-free assay, competition with immobilised ligand | 97 |
| STK32B (Homo sapiens, UniProt Q9NY57) | cell-free assay, competition with immobilised ligand | 88 |
| NEK2 (Homo sapiens, UniProt P51955) | cell-free assay, competition with immobilised ligand | 95 |
| TGFBR1 (Homo sapiens, UniProt P36897) | cell-free assay, competition with immobilised ligand | 100 |
| PIP5K1C (Homo sapiens, UniProt O60331) | cell-free assay, competition with immobilised ligand | 100 |
| GRK1 (Homo sapiens, UniProt Q15835) | cell-free assay, competition with immobilised ligand | 100 |
| CDC42BPG (Homo sapiens, UniProt Q6DT37) | competition binding | 99 |
| LRRK2 (Homo sapiens, UniProt Q5S007) | cell-free assay, competition with immobilised ligand | 72 |
| ACVRL1 (Homo sapiens, UniProt P37023) | cell-free assay, competition with immobilised ligand | 93 |
| EIF2AK1 (Homo sapiens, UniProt Q9BQI3) | cell-free assay, competition with immobilised ligand | 100 |
| HIPK4 (Homo sapiens, UniProt Q8NE63) | cell-free assay, competition with immobilised ligand | 98 |
| PRKCE (Homo sapiens, UniProt Q02156) | cell-free assay, competition with immobilised ligand | 93 |
| FGFR3 (Homo sapiens, UniProt P22607) | cell-free assay, competition with immobilised ligand | 100 |
| MAP3K20 (Homo sapiens, UniProt Q9NYL2) | cell-free assay, competition with immobilised ligand | 81 |
| MARK1 (Homo sapiens, UniProt Q9P0L2) | cell-free assay, competition with immobilised ligand | 99 |
| CSNK1G3 (Homo sapiens, UniProt Q9Y6M4) | cell-free assay, competition with immobilised ligand | 67 |
| PIK3CA (Homo sapiens, UniProt P42336, M1043I) | cell-free assay, competition with immobilised ligand | 94 |

Set 3
Compound: CC(C)n1cnc(-c2ccc(F)cc2)c1-c1ncc(C(=O)Nc2ccc(N3CCN(C)CC3)cc2)[nH]1
Method: phase 2a trial
Host: idiopathic pulmonary fibrosis patients
| setting | patients with rhinorrhoea |
| --- | --- |
| 30 mg once daily, grade 3 emergent event | 0% |
| all arms, grade 5 emergent event | 0% |
| 60 mg once daily, grade 2 emergent event | 0% |
| 30 mg once daily, grade 1 emergent event | 0% |
| 30 mg once daily, grade 4 emergent event | 0% |
| 30 mg once daily, grade 2 emergent event | 0% |
| all arms, grade 3 emergent event | 0% |
| 60 mg once daily, grade 5 emergent event | 0% |
| 60 mg once daily, grade 4 emergent event | 0% |

Set 4
Target: Mitogen-activated protein kinase 8 (MAPK8, Homo sapiens, UniProt P45983)
UniProt P45983, sequence (whole entry, looked up): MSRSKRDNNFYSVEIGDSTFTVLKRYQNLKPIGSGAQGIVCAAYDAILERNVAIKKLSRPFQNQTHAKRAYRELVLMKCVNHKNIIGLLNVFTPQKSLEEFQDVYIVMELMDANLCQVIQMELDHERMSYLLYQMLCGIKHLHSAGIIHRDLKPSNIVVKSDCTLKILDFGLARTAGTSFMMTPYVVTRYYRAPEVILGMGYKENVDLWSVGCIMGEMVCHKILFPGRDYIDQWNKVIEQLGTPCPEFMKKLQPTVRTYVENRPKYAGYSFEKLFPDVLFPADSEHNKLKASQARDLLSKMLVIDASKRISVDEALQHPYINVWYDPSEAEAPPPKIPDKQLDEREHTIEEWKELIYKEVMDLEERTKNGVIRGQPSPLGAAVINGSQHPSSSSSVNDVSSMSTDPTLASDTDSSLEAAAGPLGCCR
Read-out: enzyme activity
Mode: inhibitor
Concentration: 0.5 µM
Reference: control
| Structure (SMILES) | remaining activity |
| --- | --- |
| CCc1[nH]c(-c2ccc(OC)cc2)nc1-c1ccncc1 | 98.9% |
| CC[n+]1c(/C=C/N(C)c2ccccc2)n(-c2ccccc2)c2ccc(-c3nc4ccccc4s3)cc21 | 96.3% |
| Cc1cncc2cccc(S(=O)(=O)N3CCCN(C(=O)CN)C[C@@H]3C)c12 | 98.8% |
| Cc1cc(Nc2nc(-c3ccccc3)nc3ccccc23)n[nH]1 | 92% |
| CCCC(=O)Oc1ccc2[nH]c(C(=O)c3cc4ccccc4[nH]3)cc2c1 | 84% |
| NC(=O)c1ccc(N(C(N)=O)c2c(F)cccc2F)nc1-c1ccc(F)cc1F | 100% |
| Nc1ncnc2c1cnn2-c1ccccc1 | 87.1% |
| COc1ccc(S(=O)(=O)N(CCO)c2ccccc2CN(C)CC=Cc2ccc(Cl)cc2)cc1 | 104% |
| CC#CC(=O)Nc1cc2c(Nc3ccc(F)c(Cl)c3)ncnc2cn1 | 98.9% |
| Nc1nccc(-c2c(-c3ccc(F)cc3)ncn2C2CCNCC2)n1 | 94.8% |
| O=C1NC(=O)C(c2c[nH]c3ccccc23)=C1c1c[nH]c2ccccc12 | 95.1% |
| N#CC(=C(N)Sc1ccc(N)cc1)c1ccccc1C(F)(F)F | 112% |
| O=C1Cc2c([nH]c3ccc([N+](=O)[O-])cc23)-c2ccccc2N1 | 99.6% |
| CSc1nc(-c2ccnc(N[C@@H](C)c3ccccc3)c2)c(-c2ccc(F)cc2)[nH]1 (racemic) | 86.3% |
| CC(C)(C)n1nc(Cc2cccc3ccccc23)c2c(N)ncnc21 | 91.9% |
| O=S(=O)(NCCNC/C=C/c1ccc(Br)cc1)c1cccc2cnccc12 | 92.7% |
| COc1cc(Nc2c(C#N)cnc3cc(OCCCN4CCN(C)CC4)c(OC)cc23)c(Cl)cc1Cl | 105% |
| Cc1ccc(NC2=CC(=O)c3sc(C)nc3C2=O)cc1 | 100% |
| Oc1ccc(Nc2nc(-c3ccc(Cl)cc3)cs2)cc1 | 100% |
| Fc1ccc(-c2nc3n(c2-c2ccncc2)CCS3)cc1 | 99% |
| Nc1nc(Nc2ccc(S(N)(=O)=O)cc2)nn1C(=O)c1c(F)cccc1F | 85.9% |
| CC(=O)c1ccc(N2CCOCC2)cc1O | 96.8% |

Some of these lines once more (set 4):
| Structure (SMILES) | remaining activity |
| --- | --- |
| COc1ccc(S(=O)(=O)N(CCO)c2ccccc2CN(C)CC=Cc2ccc(Cl)cc2)cc1 | 104% |
| CC#CC(=O)Nc1cc2c(Nc3ccc(F)c(Cl)c3)ncnc2cn1 | 98.9% |
| Nc1nccc(-c2c(-c3ccc(F)cc3)ncn2C2CCNCC2)n1 | 94.8% |
| O=C1NC(=O)C(c2c[nH]c3ccccc23)=C1c1c[nH]c2ccccc12 | 95.1% |
| N#CC(=C(N)Sc1ccc(N)cc1)c1ccccc1C(F)(F)F | 112% |
| O=C1Cc2c([nH]c3ccc([N+](=O)[O-])cc23)-c2ccccc2N1 | 99.6% |
| CSc1nc(-c2ccnc(N[C@@H](C)c3ccccc3)c2)c(-c2ccc(F)cc2)[nH]1 (racemic) | 86.3% |
| CC(C)(C)n1nc(Cc2cccc3ccccc23)c2c(N)ncnc21 | 91.9% |
| O=S(=O)(NCCNC/C=C/c1ccc(Br)cc1)c1cccc2cnccc12 | 92.7% |
| COc1cc(Nc2c(C#N)cnc3cc(OCCCN4CCN(C)CC4)c(OC)cc23)c(Cl)cc1Cl | 105% |
